Results from different studies.
Parts stem from different laboratories: compare values within a part only. Several values in a cell are separate wells, animals, samples, runs or records. Substitutions count along the parent as printed.
Sequence of UniProt Q9UIK4 (whole entry, looked up): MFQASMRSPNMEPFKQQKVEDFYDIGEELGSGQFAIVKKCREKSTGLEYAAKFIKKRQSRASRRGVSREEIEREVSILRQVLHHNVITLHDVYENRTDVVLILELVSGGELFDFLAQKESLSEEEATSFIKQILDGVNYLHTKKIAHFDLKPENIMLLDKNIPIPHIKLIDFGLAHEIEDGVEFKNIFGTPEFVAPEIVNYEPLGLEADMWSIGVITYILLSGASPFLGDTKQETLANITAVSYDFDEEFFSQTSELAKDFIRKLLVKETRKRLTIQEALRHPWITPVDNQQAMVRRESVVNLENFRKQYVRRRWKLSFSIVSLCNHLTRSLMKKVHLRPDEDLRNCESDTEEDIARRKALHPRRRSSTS
Sequence of UniProt Q00535 (whole entry, looked up): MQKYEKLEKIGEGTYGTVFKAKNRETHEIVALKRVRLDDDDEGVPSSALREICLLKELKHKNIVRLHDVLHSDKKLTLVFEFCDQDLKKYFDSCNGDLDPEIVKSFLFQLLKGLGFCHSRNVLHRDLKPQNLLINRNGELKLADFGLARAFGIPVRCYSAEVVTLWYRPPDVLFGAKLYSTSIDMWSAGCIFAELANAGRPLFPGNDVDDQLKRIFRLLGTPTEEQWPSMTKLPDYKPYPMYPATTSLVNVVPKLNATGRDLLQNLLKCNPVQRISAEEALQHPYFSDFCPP
Sequence of UniProt Q5S007 (whole entry, unmodified, looked up): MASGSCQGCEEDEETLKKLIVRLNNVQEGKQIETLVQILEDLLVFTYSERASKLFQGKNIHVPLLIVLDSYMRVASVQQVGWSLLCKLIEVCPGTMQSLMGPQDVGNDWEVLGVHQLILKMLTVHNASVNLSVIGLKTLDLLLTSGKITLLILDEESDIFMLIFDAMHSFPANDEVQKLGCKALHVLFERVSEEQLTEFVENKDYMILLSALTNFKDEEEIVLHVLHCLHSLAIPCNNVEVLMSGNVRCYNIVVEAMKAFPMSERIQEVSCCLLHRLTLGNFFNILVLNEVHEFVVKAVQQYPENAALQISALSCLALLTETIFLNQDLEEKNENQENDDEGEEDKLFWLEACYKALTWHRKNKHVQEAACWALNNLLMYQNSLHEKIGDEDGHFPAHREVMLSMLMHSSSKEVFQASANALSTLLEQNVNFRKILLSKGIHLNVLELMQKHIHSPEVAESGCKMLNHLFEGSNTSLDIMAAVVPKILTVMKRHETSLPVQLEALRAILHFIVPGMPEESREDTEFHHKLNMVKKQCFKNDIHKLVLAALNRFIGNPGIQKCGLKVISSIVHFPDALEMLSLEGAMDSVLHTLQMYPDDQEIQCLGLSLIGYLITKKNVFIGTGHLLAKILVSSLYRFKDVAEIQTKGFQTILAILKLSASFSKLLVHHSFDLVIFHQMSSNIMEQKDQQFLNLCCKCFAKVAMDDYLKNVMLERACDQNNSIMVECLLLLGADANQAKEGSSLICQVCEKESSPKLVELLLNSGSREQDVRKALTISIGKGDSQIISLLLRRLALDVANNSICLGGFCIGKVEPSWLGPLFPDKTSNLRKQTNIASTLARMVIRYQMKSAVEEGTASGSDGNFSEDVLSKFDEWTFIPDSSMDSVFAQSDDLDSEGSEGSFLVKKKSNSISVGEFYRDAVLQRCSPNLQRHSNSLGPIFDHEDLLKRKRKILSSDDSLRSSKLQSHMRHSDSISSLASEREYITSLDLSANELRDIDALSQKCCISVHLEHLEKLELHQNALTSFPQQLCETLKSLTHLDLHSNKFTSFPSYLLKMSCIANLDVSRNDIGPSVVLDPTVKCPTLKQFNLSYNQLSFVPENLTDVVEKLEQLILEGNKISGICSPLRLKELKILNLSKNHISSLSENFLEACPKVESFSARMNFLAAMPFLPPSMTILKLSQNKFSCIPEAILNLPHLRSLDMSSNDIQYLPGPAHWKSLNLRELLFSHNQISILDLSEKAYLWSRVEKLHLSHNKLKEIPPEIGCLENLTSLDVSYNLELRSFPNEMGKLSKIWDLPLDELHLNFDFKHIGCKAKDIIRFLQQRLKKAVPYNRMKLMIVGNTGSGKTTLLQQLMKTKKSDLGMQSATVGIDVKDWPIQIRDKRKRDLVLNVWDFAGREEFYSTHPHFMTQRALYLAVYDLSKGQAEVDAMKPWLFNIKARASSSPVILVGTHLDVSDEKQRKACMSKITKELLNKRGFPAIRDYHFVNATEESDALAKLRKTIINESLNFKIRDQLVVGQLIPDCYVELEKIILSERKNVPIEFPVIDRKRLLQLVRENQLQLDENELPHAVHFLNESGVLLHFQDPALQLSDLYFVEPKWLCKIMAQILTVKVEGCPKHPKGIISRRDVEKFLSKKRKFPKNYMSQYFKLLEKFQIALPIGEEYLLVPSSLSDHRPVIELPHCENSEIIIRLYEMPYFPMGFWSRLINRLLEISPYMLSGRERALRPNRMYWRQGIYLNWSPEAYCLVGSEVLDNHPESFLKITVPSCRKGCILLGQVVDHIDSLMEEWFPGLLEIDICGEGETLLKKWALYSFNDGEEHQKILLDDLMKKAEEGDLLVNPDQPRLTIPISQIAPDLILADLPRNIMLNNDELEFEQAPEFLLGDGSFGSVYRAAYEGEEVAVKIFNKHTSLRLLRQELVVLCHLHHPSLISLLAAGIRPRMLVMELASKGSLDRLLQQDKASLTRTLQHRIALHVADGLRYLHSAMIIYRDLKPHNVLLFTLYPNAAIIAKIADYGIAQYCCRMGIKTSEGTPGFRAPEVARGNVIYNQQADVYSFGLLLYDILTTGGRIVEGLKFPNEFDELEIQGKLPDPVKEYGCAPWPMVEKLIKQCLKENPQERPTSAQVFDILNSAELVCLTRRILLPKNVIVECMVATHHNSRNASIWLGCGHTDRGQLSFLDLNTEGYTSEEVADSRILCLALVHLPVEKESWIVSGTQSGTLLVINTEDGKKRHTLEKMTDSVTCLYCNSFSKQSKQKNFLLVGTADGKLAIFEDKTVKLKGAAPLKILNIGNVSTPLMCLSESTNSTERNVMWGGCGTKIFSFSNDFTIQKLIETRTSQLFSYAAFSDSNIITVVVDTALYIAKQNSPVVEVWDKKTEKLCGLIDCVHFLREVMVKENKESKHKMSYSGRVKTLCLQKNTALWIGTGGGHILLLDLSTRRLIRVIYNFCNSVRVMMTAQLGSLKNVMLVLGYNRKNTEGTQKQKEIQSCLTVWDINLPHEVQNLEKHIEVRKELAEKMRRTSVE
Sequence of UniProt P11802 (whole entry, looked up): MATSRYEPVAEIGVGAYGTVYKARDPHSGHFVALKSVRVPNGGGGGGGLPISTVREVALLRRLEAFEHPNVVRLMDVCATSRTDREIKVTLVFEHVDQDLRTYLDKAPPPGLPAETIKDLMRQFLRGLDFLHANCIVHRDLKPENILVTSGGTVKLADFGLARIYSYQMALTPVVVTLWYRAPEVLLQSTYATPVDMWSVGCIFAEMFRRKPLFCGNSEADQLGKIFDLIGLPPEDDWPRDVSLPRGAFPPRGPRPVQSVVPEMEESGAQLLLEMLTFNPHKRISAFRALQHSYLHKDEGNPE

Series 1 — effect on: cell-free assay; technique: competition with immobilised ligand; tested at: 1 µM; quantity: remaining binding
SMILES: CN(C(=O)c1ccccc1)c1cc(N(C)c2ccc3c(c2)CCc2ccc(C(=O)NCCN4CCOCC4)cc2C3=O)ccc1F
SYK (Homo sapiens, UniProt P43405): 89%
PIK3CA (Homo sapiens, UniProt P42336, E545K): 82%
CDK4 (Homo sapiens, UniProt P11802): 91%
CDK5 (Homo sapiens, UniProt Q00535): 95%
LRRK2 (Homo sapiens, UniProt Q5S007, G2019S): 86%
ALK (Homo sapiens, UniProt Q9UM73): 100%
DAPK2 (Homo sapiens, UniProt Q9UIK4): 86%

Series 2 — target: TEF, bZIP domain (human); technique: DHFR protein complementation; matrix: yeast; relative to: wild-type JUN-FOS pair; direction: higher = stronger binding; quantity: binding fitness
Setting: single substitutions, most at no-binding floor
Starting sequence: JUN, bZIP domain (human); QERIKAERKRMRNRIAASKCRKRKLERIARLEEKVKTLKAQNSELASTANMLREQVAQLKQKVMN; partner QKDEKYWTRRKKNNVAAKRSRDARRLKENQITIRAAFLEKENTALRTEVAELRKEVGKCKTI
N42T: -1.53 natural log
L45N: -1.49 natural log
I28H: -1.48 natural log
K34R: -1.44 natural log
N42L: -1.44 natural log
Q41R: -1.5 natural log
S47G: -1.38 natural log
E33T: -1.3 natural log

Series 3 — effect on: enzyme activity; mode: inhibitor; tested at: 0.5 µM; relative to: control; quantity: remaining activity
Target: Homeodomain-interacting protein kinase 2 (HIPK2, Homo sapiens, UniProt Q9H2X6)
Sequence of UniProt Q9H2X6 (whole entry, looked up): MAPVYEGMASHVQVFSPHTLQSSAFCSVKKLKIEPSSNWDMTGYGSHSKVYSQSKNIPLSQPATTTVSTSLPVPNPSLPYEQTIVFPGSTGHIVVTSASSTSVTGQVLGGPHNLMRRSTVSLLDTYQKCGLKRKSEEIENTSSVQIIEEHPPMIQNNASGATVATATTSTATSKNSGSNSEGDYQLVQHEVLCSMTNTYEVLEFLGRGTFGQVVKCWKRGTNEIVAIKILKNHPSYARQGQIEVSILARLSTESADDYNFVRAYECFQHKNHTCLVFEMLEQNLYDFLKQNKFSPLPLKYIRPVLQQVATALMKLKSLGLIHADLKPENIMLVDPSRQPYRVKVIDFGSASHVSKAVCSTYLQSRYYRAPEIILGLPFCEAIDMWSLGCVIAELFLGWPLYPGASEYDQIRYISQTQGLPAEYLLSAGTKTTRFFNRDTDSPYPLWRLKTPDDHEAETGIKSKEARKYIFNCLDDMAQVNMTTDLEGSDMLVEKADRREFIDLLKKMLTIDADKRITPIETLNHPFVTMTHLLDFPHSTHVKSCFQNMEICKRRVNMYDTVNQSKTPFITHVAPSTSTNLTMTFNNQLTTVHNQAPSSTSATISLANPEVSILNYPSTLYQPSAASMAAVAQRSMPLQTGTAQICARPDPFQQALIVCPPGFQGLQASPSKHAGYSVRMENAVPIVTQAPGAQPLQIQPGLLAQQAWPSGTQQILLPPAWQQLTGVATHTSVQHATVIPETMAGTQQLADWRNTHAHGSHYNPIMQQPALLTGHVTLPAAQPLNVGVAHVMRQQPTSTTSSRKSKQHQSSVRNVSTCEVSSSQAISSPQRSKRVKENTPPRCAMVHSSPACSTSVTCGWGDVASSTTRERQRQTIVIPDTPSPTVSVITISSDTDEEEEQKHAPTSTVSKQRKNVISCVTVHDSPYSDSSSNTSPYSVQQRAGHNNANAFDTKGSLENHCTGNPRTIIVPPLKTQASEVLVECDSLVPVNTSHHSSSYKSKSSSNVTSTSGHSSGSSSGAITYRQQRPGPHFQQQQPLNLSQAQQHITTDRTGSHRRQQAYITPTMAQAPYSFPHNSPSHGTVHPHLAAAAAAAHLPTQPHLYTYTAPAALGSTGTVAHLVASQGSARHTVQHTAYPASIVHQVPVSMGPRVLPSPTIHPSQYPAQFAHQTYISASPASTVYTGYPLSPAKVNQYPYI
Cn1c2ccccc2c2c3c(c4c5ccccc5n(CCC#N)c4c21)CNC3=O: 97.8%
N#CC(C#N)=C(N)/C(C#N)=C/c1ccc(O)cc1: 102%
O=C1NC(=O)C(c2cn(CCCO)c3ncccc23)=C1c1cnccn1: 96.6%
CC(C)[C@H](CO)Nc1nc(Nc2cc(N)cc(Cl)c2)c2ncn(C(C)C)c2n1: 94.3%
COc1cc2ncnc(Nc3ccc(Oc4ccccc4)cc3)c2cc1OC: 94.8%
CN(C)c1ccc(C=C2C(=O)Nc3ccccc32)cc1: 106%
Cc1nc(-c2ccccc2)c(-c2ccncc2)o1: 95.5%
O=C1NC(=O)C(c2cn(CCCn3ccnc3)c3ccccc23)=C1Nc1ccccc1: 87.6%
O=C(Nc1cccc(Nc2cc(Nc3cccc(C(F)(F)F)c3)ncn2)c1)C1CC1: 107%
CO[C@H]1C[C@@H]2CC[C@@H](C)[C@@](O)(O2)C(=O)C(=O)N2CCCC[C@H]2C(=O)O[C@H]([C@H](C)C[C@@H]2CC[C@@H](O)[C@H](OC)C2)CC(=O)[C@H](C)/C=C(\C)[C@@H](O)[C@@H](OC)C(=O)[C@H](C)C[C@H](C)/C=C/C=C/C=C/1C: 88%
Oc1ccc(-c2nc(-c3ccncc3)c(-c3ccc(F)cc3)[nH]2)cc1: 102%
Cn1sc(=O)n(Cc2ccccc2)c1=O: 99.6%
COc1ccc(OC)c2c(=S)c3ccccc3[nH]c12: 98.3%

Single results of other studies
COc1ccc(-c2c(Nc3ccccn3)[nH]c3c(C4=CCCCC4)c(-c4ccccc4)nn3c2=O)cc1
Cmax accumulation ratio (human cancer patients, plasma; oral, 100 mg QD, median, cycle 1 day 15; relative to: multiple over single dose): 2.48

CC(C)C[C@@H]1NC(=O)[C@@H](N(C)C(=O)[C@H](CC2CCC2)NC(=O)[C@@H]2C[C@@H](F)CN2C(=O)C2(C(F)(F)F)CC(F)(F)C2)CCCCNC(=O)C2(CC2)NC(=O)[C@H](Cc2cc(Cl)ccc2Cl)N(C)C1=O
G2-M phase cells (human CD34+ HSPC; EdU flow cytometry; 1000 nM, 24 h): 6.22% and 7.75%
